Assay results of several laboratories.
Numbered parts are unrelated; each lists some results of a single study.

Sample 1 — method: protein binding microarray; molecule type: double-stranded DNA, one strand shown; medium: in vitro; tested at: not given; relative to: not given; reading: higher = stronger binding
Target: Histone acetyltransferase KAT6A, both winged helices, GST fusion (KAT6A, Homo sapiens, UniProt Q92794, residues 1-181)
Setting: 8-mer, flanks averaged, mean of 2 arrays, mostly near background
Construct (chain): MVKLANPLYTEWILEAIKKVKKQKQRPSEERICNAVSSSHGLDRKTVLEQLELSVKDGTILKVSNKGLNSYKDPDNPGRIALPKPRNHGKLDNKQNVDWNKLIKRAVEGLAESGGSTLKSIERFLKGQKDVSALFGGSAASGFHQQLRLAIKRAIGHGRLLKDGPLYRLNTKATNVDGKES
Strand | E-score
ATTAGAGG | -0.101
GCCCCAGC | -0.109
AGCTACTC | -0.125
AGCGTACA | 0.00771
GTGGAATA | -0.0889
CTTGAATC | -0.108
AACTCGCC | 0.0359
GAACGCAA | 0.0401
CAAAGACC | -0.0137
GCGAGTTA | 0.108
CATCGCCA | 0.168
GCAGGTGA | -0.185
AAGGCAGA | -0.21
GAAAGGCC | 0.113
TATGGAGA | -0.209
CTGCTACC | -0.16
CAACGTCC | -0.00231
CTATCTTA | -0.135

Sample 2 — method: protein-binding microarray; molecule type: double-stranded DNA, one strand shown; medium: in vitro; tested at: not given; reading: higher = stronger binding
Target: Transcriptional repressor CTCF (CTCF, Homo sapiens, UniProt P49711, residues 1-727, full length assumed)
Sequence of UniProt P49711 (whole entry, looked up): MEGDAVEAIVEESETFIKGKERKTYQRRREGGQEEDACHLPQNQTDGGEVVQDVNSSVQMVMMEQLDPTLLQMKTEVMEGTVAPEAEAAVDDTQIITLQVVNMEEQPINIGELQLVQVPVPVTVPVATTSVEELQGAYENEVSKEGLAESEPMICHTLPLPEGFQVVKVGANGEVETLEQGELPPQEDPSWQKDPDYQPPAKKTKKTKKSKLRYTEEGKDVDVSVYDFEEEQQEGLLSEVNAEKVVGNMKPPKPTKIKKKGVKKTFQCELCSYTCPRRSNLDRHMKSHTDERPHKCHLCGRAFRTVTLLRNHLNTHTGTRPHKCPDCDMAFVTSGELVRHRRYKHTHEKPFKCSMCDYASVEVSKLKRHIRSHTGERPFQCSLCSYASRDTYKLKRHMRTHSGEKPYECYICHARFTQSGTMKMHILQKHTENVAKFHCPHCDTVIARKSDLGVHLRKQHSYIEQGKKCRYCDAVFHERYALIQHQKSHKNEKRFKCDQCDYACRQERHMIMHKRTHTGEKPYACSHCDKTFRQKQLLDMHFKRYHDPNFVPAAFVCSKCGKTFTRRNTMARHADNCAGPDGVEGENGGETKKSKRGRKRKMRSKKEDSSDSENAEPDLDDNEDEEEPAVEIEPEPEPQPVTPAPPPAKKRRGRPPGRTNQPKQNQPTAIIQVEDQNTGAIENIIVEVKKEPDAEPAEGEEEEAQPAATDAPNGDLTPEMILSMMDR
Setting: k-mer, scored over probes, only values ≥0.25
Strand | E-score
CTATTGTA | 0.257
ACATCACT | 0.29
CGCATACA | 0.292
CTGCGCAA | 0.315
AGTAAAAT | 0.269
AAATACCT | 0.255
TACATACA | 0.363
ATTTATTC | 0.254
ATTACTAC | 0.26
ATAACGAA | 0.29
AGGTAATA | 0.269
CCCCCTAG | 0.395
ATGATACA | 0.27
AAATAATG | 0.305

Sample 3 — method: universal PBM; molecule type: double-stranded DNA, one strand shown; medium: in vitro; tested at: 600 nM; reading: higher = stronger binding
Target: Sal-like protein 4, full length isoform A (SALL4, Homo sapiens, UniProt Q9UJQ4, residues 1-1053)
Sequence of UniProt Q9UJQ4 (whole entry, looked up): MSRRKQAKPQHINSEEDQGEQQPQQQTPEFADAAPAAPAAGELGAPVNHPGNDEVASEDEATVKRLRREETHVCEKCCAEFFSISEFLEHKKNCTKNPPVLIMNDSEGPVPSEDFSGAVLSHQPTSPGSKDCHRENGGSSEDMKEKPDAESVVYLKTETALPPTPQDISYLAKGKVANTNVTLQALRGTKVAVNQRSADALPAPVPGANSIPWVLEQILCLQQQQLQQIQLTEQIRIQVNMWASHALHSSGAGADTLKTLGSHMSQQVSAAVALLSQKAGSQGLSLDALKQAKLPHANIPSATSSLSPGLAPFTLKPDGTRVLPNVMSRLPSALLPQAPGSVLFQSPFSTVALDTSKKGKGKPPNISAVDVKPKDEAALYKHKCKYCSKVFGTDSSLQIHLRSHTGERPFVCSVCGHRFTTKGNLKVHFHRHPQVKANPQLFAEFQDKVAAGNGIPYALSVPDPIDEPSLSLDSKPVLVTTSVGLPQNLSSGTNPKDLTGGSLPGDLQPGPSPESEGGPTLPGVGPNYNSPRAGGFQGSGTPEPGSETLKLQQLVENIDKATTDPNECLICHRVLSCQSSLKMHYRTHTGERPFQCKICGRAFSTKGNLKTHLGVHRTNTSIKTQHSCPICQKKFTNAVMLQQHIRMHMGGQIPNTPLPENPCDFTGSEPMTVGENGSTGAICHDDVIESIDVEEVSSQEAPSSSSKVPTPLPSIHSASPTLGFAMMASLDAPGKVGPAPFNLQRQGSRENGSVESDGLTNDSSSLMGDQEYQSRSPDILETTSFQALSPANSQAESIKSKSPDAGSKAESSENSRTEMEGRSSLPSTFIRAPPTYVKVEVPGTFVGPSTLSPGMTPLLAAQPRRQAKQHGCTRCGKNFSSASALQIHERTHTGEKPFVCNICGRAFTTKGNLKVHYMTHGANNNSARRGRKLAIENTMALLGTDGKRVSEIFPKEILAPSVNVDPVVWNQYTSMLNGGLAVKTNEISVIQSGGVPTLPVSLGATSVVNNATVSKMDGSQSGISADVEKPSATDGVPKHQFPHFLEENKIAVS
Setting: 8-mer, flanks averaged, mean of replicates
Strand | E-score
GACTCTAC | -0.149
GGTTAGTA | 0.058
AACAACTT | 0.0818
GTAGTGCA | 0.134
AGCGCACT | -0.241
CTAGTCAA | 0.056
ATATTACC | 0.384
ACCACCTG | -0.248
CTTGTCGC | -0.157
AATGCGCA | 0.172
CTCAAGTC | -0.0784
CATGCATC | -0.00458
TGGGCTAA | -0.17
CCATACGC | -0.00357
CTTTCGGA | -0.0136
CCTATCTA | 0.0712
CAAGATGA | -0.0301
GGGATGGA | -0.22
AACTGCTC | -0.094
ATGACTCC | -0.0968
AAACCTAC | -0.0313
ATCTTGAC | 0.00142
AGCGTGGA | -0.11
AGTTATTG | 0.296
CGGTGACC | -0.32

Sample 4 — method: aptamer microarray, sandwich; molecule type: DNA with 2'F-ANA; medium: in vitro; tested at: 200 nM; together with: Cy3 exosite-II aptamer, 400 nM; reading: higher = stronger binding; strand: GGTTGGTGTGGTTGG
Target: Prothrombin, mature alpha-thrombin (F2, Homo sapiens, UniProt P00734)
Setting: whole 15-mer aptamer, many near background
Modification | mean fluorescence intensity [a.u.]
2'F-ANA at 6 9 10 13 14 15 | 101
2'F-ANA at 1 3 5 7 8 10 13 | 48.7
2'F-ANA at 2 3 4 6 9 11 14 | 212
2'F-ANA at 1 4 5 7 8 10 12 13 14 15 | 45.6
2'F-ANA at 2 3 4 6 7 8 9 10 11 | 216
2'F-ANA at 2 3 4 5 6 7 9 12 14 15 | 91.1
2'F-ANA at 1 5 6 8 11 13 14 15 | 50.2
2'F-ANA at 2 4 5 6 7 8 10 13 15 | 116
2'F-ANA at 1 2 3 4 7 11 12 14 | 92.3
2'F-ANA at 2 4 5 7 10 12 | 51.4
2'F-ANA at 1 8 10 13 | 54.1
2'F-ANA at 1 2 4 5 6 7 12 13 14 15 | 46.6
2'F-ANA at 1 2 4 6 9 10 11 12 13 14 15 | 51.4
2'F-ANA at 1 3 4 9 10 13 15 | 57.7
2'F-ANA at 1 2 5 8 9 10 11 13 15 | 61.3
2'F-ANA at 4 5 7 9 10 11 12 15 | 49.2
2'F-ANA at 2 3 5 6 7 9 10 11 | 63
2'F-ANA at 1 2 3 4 5 7 8 10 13 14 | 89.4
2'F-ANA at 1 3 5 6 8 9 13 14 15 | 48.7
2'F-ANA at 1 2 3 6 12 | 428
2'F-ANA at 2 3 5 6 9 10 13 14 15 | 52.4
2'F-ANA at 1 3 7 12 14 | 173
2'F-ANA at 1 6 10 12 13 14 15 | 53.7
2'F-ANA at 2 3 4 6 8 9 10 14 | 149
2'F-ANA at 1 5 7 11 12 | 90.7

Sample 5 — method: RNA Bind-n-Seq; molecule type: RNA; medium: in vitro; tested at: not given; relative to: input RNA pool; reading: higher = stronger binding
Target: RING finger protein unkempt homolog, zinc fingers 1-6, GST-SBP tag (UNK, Homo sapiens, UniProt Q9C0B0, residues 30-357)
Sequence of UniProt Q9C0B0 (30-357, looked up): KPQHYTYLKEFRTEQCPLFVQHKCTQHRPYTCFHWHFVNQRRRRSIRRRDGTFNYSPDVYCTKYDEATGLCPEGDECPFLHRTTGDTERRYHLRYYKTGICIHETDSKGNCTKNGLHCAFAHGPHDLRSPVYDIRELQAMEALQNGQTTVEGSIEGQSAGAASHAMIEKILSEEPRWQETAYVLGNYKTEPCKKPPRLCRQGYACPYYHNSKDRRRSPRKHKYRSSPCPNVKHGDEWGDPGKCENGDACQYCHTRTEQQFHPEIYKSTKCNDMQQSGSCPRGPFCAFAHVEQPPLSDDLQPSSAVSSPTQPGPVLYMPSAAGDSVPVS
Setting: RNA with constant flanks, human and mouse sites, ends assumed
All sequences stand within: GGGAGUUCUACAGUCCGACGAUC … CAACAGAGGAUUGAGCAUCA
Strand | bound/input enrichment [ratio]
CCUCUACCAGAUGACUAUAAUUGCAACGUAGAGCUUGCUCUGACUUCUGAUGGCAGGACAAUAGUAUGCUACCACCCUUCUGUGGACAUUCCAUAUGAACACACAAAACCUAUCCCUCGG | 0.236
GAAAUGGAAGAUGCACACACAGCUGUUGUGGGUAUUCCUCACGGCUUGGACAACUGGUCGUUUUUUGCAGUUUAUGACGGUCAUGCUGGAUCCCGAGUGGCAAAUUACUGUUCAACACAU | 0.159
UUUUCUAAAACUGACAACCAGGUGGGACCAAAGUUUAUGUGCCUUUAGUCUUAAUUUACCUUGCAUUGUAAUAUUCAGUUUUAAUAAAUCUUCAAAAUAUUUUGUAUUUAGGAAUAGAUC | 0.743
AGGUUGGGUCAUGACCCCUACAGGUUAGGCCAUGAUGCUUACAGGUUAGGACAAGACCCUUAUAGAUUAGGCCAUGAUCCCUACAGACUAACUCCGGAUCCCUAUAGGGUAUCACCUAGG | 13.5
UACUUUACAAUCAUCCACACUGUGGUCUGUGGAUCUUUAAUAUAUAUAUAUAUAAAACAAUAGUAGUCAUUUUUAAGUAUAUUCUGAAACCUUUGCAAAUUUUAAGAGAAGAGUCGAAGC | 45.1
GAAGCAAGAGCUUUUGCAGAAAAGAAUGGUUUGUCAUUCAUUGAAACUUCGGCCCUAGACUCUACAAAUGUAGAAGCUGCUUUUCAGACAAUUUUAACAGAGAUUUACCGCAUUGUUUCU | 0.769

Sample 6 — method: RNA Bind-n-Seq; molecule type: RNA; medium: in vitro; tested at: 365 nM; relative to: no-protein control; reading: higher = stronger binding
Target: RNA binding protein fox-1 homolog 2, RRM domain, GST-SBP tag (RBFOX2, Homo sapiens, UniProt O43251-10, residues 100-194)
Setting: natural RNA segment, single round, ends assumed
All sequences stand within: GGGAGUUCUACAGUCCGACGAUC … UGGAAUUCUCGGGUGCCAA
Residues (chain): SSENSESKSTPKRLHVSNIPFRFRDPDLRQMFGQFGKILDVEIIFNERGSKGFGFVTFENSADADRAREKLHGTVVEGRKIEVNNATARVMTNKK
Strand | RBNS enrichment (R)
GGGGCUGAUUUUAUUACCAGGUUACCCUGUUCUAGAUCAGGAGGGUCUAUUUCCUGUUGCCGCUCUGCAGCCUGGACCUGUGGACCCUGGUUGUAAAGAGUAAAACUGUA | 0.341
CCUCUGAGGGUAGAUUUUUUUUUUUAAUCCGGUCCCUUGGAUUUAAAAAUAAAAUUAAUUUUCUGUUAUAGUGGGCAUGUGAUGUCUUACUGCACUUGCUGUCUUUCCAA | 0.622
UCUCCCUUUGUCCCCACUGCAUGUUGACACAAGUAUGGAAGUGGAGCCUGGUUAGAACUUGUUUCUAGUGCUAAUGCUCUGACCUAGUAUUUCCAUUGGAGAUCACUGUC | 13.6
UUUGAGUGUAAAGACUCACAGGUGACCUGCUAUCGAGAUAGCCAGAGGGUCAGGAGAGAAUGGGGGAGGAGGCGGUCAGGCUGCUGAGGAAACACCACAGGCUGAACGGG | 0.738
GUGGAAGGAGGGUAUGAUGCAGGUGCCAGAUUUGGAGCUGGGGCUACUGCUGGCAACAUUCCUGCUCCACCUCCUGGAUGCCCUCCCAAUGCUGCUCAGCUUGCAGUCAU | 0.385
UGCGGCAGUGUUCCUUGUGCCCGUGGGGCCGGGAGCGAGUAAAGUCUGGGCCAGGCUGUGUGUGUGUUCUUUGCUUUGAGGACUGGUGUUCUCUUUGGGGAUCCUGAUCC | 0.721
UCGAGGAGGAGAUGGCCUAGUGUUACGGCUCGAGACAGGAGGCCAGCCCAGGGGGUUCUGCUUAUGUGUCCCCGUGGCUCUCCACAAAAGGGAGCUAGCACCUCUCCAUC | 0.48
UGGAAAAGCCAACCCCGUGGCUGCCCGUGAGUAGGGGGUGGGGUUGGGAAUCCUGGAUAGUGUUCUAUCCAUGGAAAGUGGUGGAAUAGGAAUUAAGGGUGUUCCCCCCC | 0.395
UUUGCUACCGAAGUUGGCUCAAGAAUUUGUUUUUAGUGUUAUUUACCAAGAUUAGGACGUCAGUGGCUUAAAUUCUUUGAAUUCUUUUCAAGGACUGCAAGAUUAUUUGA | 0.997
GAACACUAGUAAUUCUGGUUUUUCUUUCUAACUGCUUUACUGUUUCAAGGGUAUUCUUUUAAAACUCUGAUUUCAAAGGAUCAGUUGAAUUUAUACUUUAGUUAUGGGUG | 0.297
UUGCUUUUGAUCUUGUCAAAAAACUGAAUAGACCCCAGUUUCGGGAAGGUGUGUGAGCAGUGCCAUGACUCUGCCCCUUACCUAAUCCCACAUCUCUCUAAUGAUAAGAC | 0.641
GUGCCUGUUCCUCCAUCCUGCUGCCCCCCUCCAGGCCUGCCAGGUGGCCCCUGAAGGUUGCUUUAAGGGGAAAGUAUGUUCUCAUGUCUUCACCCCUCCCUAGAUCUCAC | 0.453

Some of these lines once more (sample 2):
Strand | E-score
CGCATACA | 0.292
CTGCGCAA | 0.315
AGTAAAAT | 0.269
AAATACCT | 0.255
TACATACA | 0.363
